# Assay results gathered from unrelated publications.
# Protocols differ between the studies behind these lines. ± marks the error that the study gave.
# Chain of UniProt P21917 (whole entry, looked up): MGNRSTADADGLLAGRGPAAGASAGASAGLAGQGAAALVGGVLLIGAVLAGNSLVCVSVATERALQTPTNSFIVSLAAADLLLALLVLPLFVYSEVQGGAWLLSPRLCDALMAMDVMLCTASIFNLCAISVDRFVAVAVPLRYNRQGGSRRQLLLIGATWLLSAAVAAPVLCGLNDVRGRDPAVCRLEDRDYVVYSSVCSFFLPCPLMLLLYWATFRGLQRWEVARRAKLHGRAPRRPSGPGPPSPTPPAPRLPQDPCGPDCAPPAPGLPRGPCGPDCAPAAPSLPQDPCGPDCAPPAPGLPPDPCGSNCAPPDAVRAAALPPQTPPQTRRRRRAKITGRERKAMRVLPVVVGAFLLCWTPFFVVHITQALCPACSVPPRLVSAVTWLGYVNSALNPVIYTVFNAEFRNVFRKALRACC
# Chain of UniProt O14920 (whole entry, looked up): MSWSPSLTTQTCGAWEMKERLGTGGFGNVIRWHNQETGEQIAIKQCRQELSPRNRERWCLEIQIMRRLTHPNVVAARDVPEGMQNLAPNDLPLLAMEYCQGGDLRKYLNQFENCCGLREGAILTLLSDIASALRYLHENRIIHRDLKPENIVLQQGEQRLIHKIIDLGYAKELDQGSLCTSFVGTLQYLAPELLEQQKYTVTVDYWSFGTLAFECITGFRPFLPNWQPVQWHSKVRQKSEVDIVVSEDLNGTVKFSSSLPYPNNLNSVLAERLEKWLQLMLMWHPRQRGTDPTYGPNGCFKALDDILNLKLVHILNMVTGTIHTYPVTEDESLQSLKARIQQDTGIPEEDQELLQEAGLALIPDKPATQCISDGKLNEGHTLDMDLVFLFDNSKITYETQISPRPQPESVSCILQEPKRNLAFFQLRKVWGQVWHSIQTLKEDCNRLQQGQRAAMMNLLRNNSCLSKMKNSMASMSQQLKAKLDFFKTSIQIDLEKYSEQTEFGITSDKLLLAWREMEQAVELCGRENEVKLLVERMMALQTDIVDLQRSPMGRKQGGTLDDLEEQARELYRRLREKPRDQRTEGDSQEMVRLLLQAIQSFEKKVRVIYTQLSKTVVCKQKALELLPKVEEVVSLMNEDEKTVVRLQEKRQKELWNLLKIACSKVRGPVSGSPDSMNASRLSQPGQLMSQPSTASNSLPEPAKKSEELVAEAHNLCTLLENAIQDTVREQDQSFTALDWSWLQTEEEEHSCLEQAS
Compound,tested on,assay,test system,setting,how to read,quantity,value
COc1cccc(OC)c1-c1cc(C(=O)NC2(C(=O)O)C3CC4CC(C3)CC2C4)nn1-c1ccc(C(=O)N(C)CCCN(C)C(=O)[C@H](CCCCNC(=O)[C@H](CC(C)C)NC(=O)C2OC2C(=O)O)NC(=O)CN2CCN(CC(=O)[O-])CCN(CC(=O)[O-])CCN(CC(=O)[O-])CC2)cc1C(C)C.[177Lu+3] (mixture of isomers),,,"mouse, HT-29 xenograft, spleen",4 h post injection,,tissue uptake,0.577 %ID/g
CNS(=O)(=O)Nc1nccc(Cc2c(C)c3ccc(Oc4ncccc4F)cc3oc2=O)c1F,HGC-27,cell viability,,7 days,,IC50,> 1 µM
Cc1ncsc1-c1ccc(C(C)NC(=O)C2CC(O)CN2C(=O)C(NC(=O)CCCCCCCCCCN2CCCC(Nc3ncc(Cl)c(Nc4ccccc4S(=O)(=O)C(C)C)n3)C2)C(C)(C)C)cc1 (stereo not shown),22Rv1,"RNA-seq, measured: RANBP3L mRNA",,concentration not given,baseline: DMSO,log2 fold change,-1.92
CC(C)Cc1ccc(C(C)C(=O)N[C@@H](CCCCNC(=O)CCOCCOCCOCCOCCOCCOCCNC(=O)CN2CCN(CC(=O)[O-])CCN(CC(=O)[O-])CCN(CC(=O)[O-])CC2)C(=O)Nc2cccc3c(C(=O)NCC(=O)N4CC(F)(F)C[C@H]4C#N)ccnc23)cc1.[177Lu+3] (stereo partly shown),,,"mouse, U-87 MG tumour xenograft, kidneys",4 h,,tissue uptake,2.7 ± 0.63 %ID/g
COc1cccc(OC)c1-c1cc(C(=O)NC2(C(=O)O)C3CC4CC(C3)CC2C4)nn1-c1ccc(C(=O)N(C)CCOCCOCCN(C)C(=O)[C@H](CCCCNC(=O)[C@H](CC(C)C)NC(=O)C2OC2C(=O)O)NC(=O)CN2CCN(CC(=O)[O-])CCN(CC(=O)[O-])CCN(CC(=O)[O-])CC2)cc1C(C)C.[177Lu+3] (mixture of isomers),,,"mouse HT-29 xenograft, small intestine","24 h post injection, biodistribution",,tissue uptake,0.179 %ID/g
Fc1ccc(OCC2CN(Cc3ncn4ccccc34)CCC2(F)F)cc1 (stereo not shown),"D(4) dopamine receptor (DRD4, Homo sapiens, UniProt P21917)","ligand displacement, radioligand",,cell membranes,,Ki,118 nM
C=C(NC(=O)c1csc(-c2nc3c(cc2O)-c2nc(cs2)C(=O)NC(C(C)O)C(=O)NC(=C(C)OC)c2nc(cs2)C(=O)NC2c4nc(cs4)C(=O)NC(COC(=O)c4c5c6c(cccc6n4O)COC(=O)C(OC4CC(C)(O)C(N(C)C)C(C)O4)C2OC5)c2nc-3cs2)n1)C(N)=O (stereo not shown),,,"Sprague-Dawley rats, both sexes, plasma","intravenous infusion, 6 mg/kg",,AUC(0-inf),2100 ng·h/mL
COc1cccc(OC)c1-c1cc(C(=O)NC2(C(=O)O)C3CC4CC(C3)CC2C4)nn1-c1ccc(C(=O)N(C)CCOCCN(C)C(=O)[C@H](CCCCNC(=O)[C@H](CC(C)C)NC(=O)C2OC2C(=O)O)NC(=O)CN2CCN(CC(=O)[O-])CCN(CC(=O)[O-])CCN(CC(=O)[O-])CC2)cc1C(C)C.[177Lu+3] (mixture of isomers),,,"mouse, HT-29 xenograft, lung",168 h post injection,,tissue uptake,0.45 %ID/g
N#C[C@@H]1CC(F)(F)CN1C(=O)CNC(=O)c1ccnc2c(NC(=O)[C@@H](N)CCCCNC(=O)CCOCCOCCOCCOCCOCCOCCNC(=O)CN3CCN(CC(=O)[O-])CCN(CC(=O)[O-])CCN(CC(=O)[O-])CC3)cccc12.[177Lu+3],,,"mouse, U-87 MG tumour xenograft, brain",1 h,,tissue uptake,0.03 ± 0.01 %ID/g
[11CH3]N1CCC(NC(=O)c2cc(-c3c(O)cc(O)cc3Oc3ccc([N+](=O)[O-])cc3)on2)CC1,,,"Wistar rat, female, healthy, urine","intravenous, 2 min",,tissue uptake,0 %ID
O=C(NCC1OC2CCC=CCCC2O1)c1ccc([18F])nc1 (stereo not shown),,,"healthy female BALB/c nude mice, heart","intravenous, 7.4 MBq per mouse, 5 min",,tissue uptake,4.2 ± 1.3 %ID/g
O=C(O)CCCOc1ccc([18F])cc1-c1cc(-c2ccccc2C(F)(F)F)n(-c2ccccc2)n1,,,"mouse, blood","intravenous, dose not given, 30 min",,tissue uptake,0.23 ± 0.03 %ID/g
N#C[C@@H]1CC(F)(F)CN1C(=O)CNC(=O)c1ccnc2c(NC(=O)[C@H](CCCCNC(=O)CCOCCOCCOCCOCCOCCOCCNC(=O)CN3CCN(CC(=O)[O-])CCN(CC(=O)[O-])CCN(CC(=O)[O-])CC3)NC(=O)CCCc3ccc(I)cc3)cccc12.[177Lu+3],,,"mouse, U-87 MG tumour xenograft, kidneys",4 h,,tissue uptake,2.07 ± 1.81 %ID/g
CCCC[C@H](NC(=O)COCCOCCNC(=O)CN1CCN(CC(=O)O)CCN(CC(=O)O)CC1)C(=O)N[C@H]1CC(=O)NCCCC[C@@H](C(N)=O)NC(=O)[C@H](Cc2c[nH]c3ccccc23)NC(=O)[C@H](CCCNC(=N)N)NC(=O)[C@@H](Cc2ccccc2)NC(=O)[C@H](Cc2c[nH]cn2)NC1=O [fluorine-18 labelled],,,"C57 mice B16/F10 melanoma, intestines","intravenous, 1 h, with: NDP-MSH 10 µg blockade",,tissue uptake,1.4 ± 0.17 %ID
Cc1nn(-c2cccc(N)c2)c(=O)c2cnc(Nc3ccc(N4CCNCC4)cc3)nc12,"Inhibitor of nuclear factor kappa-B kinase subunit beta (IKBKB, Homo sapiens, UniProt O14920)","enzyme activity, inhibitor",,,,IC50,> 10 µM
CCCC[C@H](NC(=O)CNC(=O)CNC(=O)[C@H](CCCCNC(=O)[C@H](CC(=O)O)NC(=O)C(C)c1ccc(CC(C)C)cc1)NC(=O)CN1CCN(CC(=O)O)CCN(CC(=O)O)CCN(CC(=O)O)CC1)C(=O)N[C@H]1CC(=O)NCCCC[C@@H](C(N)=O)NC(=O)[C@H](Cc2c[nH]c3ccccc23)NC(=O)[C@H](CCCNC(=N)N)NC(=O)[C@@H](Cc2ccccc2)NC(=O)[C@H](Cc2c[nH]cn2)NC1=O (stereo partly shown) [lutetium-177 labelled],,,"C57 mouse, blood","intravenous, 2 h, with: 10 µg NDP-MSH co-injection",,tissue uptake,1.8 ± 0.44 %ID/g
Cc1cc(C)n(CCN(CCN)CCCCCCNC(=O)[C@@H](N)Cc2c[nH]c3ccccc23)n1.[99Tc+].[C-]#[O+].[C-]#[O+].[C-]#[O+],,,"BALB/c nude mice, A549 xenograft, blood","intravenous, 4 h",,tissue uptake,0.38 ± 0.13 %IA/g
CC(C)C[C@H](NC(=O)[C@@H](CCCCNC(=O)[C@@H](Cc1ccccc1)NC(=O)CCCCCCCNC(=O)CN1CCN(CC(=O)O)CCN(CC(=O)O)CCN(CC(=O)O)CC1)NC(=O)[C@H](Cc1ccc(O)cc1)NC(=O)[C@H](CO)NC(=O)[C@H](Cc1c[nH]c2ccccc12)NC(=O)[C@H](Cc1c[nH]cn1)NC(=O)[C@@H]1CCC(=O)N1)C(=O)N[C@@H](CCCNC(=N)N)C(=O)N1CCC[C@H]1C(=O)NCC(N)=O [indium-111 labelled],,,"male athymic nude mice, DU-145 prostate cancer xenograft, stomach","intravenous, dose not given, 1 h, with: unlabeled blocking peptide 10 µg",,tissue uptake,0.42 ± 0.3 %ID/g
COc1cccc(OC)c1-c1cc(C(=O)NC2(C(=O)O)C3CC4CC(C3)CC2C4)nn1-c1ccc(C(=O)N(C)CCCN(C)CCCN(C)C(=O)[C@H](CCCCNC(=O)[C@H](CC(C)C)NC(=O)C2OC2C(=O)O)NC(=O)CN2CCN(CC(=O)[O-])CCN(CC(=O)[O-])CCN(CC(=O)[O-])CC2)cc1C(C)C.[177Lu+3] (mixture of isomers),,,"mouse, HT-29 xenograft, spleen",24 h post injection,,tissue uptake,0.8 %ID/g
CN1CCCNC(=O)c2cccc(c2)C(=O)NCCCN(C)CCCNc2cccc3c2C(=O)c2cccc(c2C3=O)NCCC1,SAS,"RNA-Seq, measured: UBE3C mRNA",,"1 µM, 6 h",baseline: untreated cells,log2 fold change,-0.743
[123I]c1ccc2nc(-c3ccc(-n4ccnn4)nc3)cn2c1,,,"Wistar rat, bone","intravenous, 24 h",,tissue uptake,not detected
COC1CN([C@H]2CC[C@H]([C@@]3(C)Oc4c(Cl)cc(C(=O)NCc5c(SC)cc(C)[nH]c5=O)c(C)c4O3)CC2)C1,,"RNA-seq, measured: PLEK2","human, whole blood","dose not given, 24 h",baseline: pretreatment baseline,log2 fold change,2.37

# Some of these lines once more:
Compound,tested on,assay,test system,setting,how to read,quantity,value
Cc1cc(C)n(CCN(CCN)CCCCCCNC(=O)[C@@H](N)Cc2c[nH]c3ccccc23)n1.[99Tc+].[C-]#[O+].[C-]#[O+].[C-]#[O+],,,"BALB/c nude mice, A549 xenograft, blood","intravenous, 4 h",,tissue uptake,0.38 ± 0.13 %IA/g
C=C(NC(=O)c1csc(-c2nc3c(cc2O)-c2nc(cs2)C(=O)NC(C(C)O)C(=O)NC(=C(C)OC)c2nc(cs2)C(=O)NC2c4nc(cs4)C(=O)NC(COC(=O)c4c5c6c(cccc6n4O)COC(=O)C(OC4CC(C)(O)C(N(C)C)C(C)O4)C2OC5)c2nc-3cs2)n1)C(N)=O (stereo not shown),,,"Sprague-Dawley rats, both sexes, plasma","intravenous infusion, 6 mg/kg",,AUC(0-inf),2100 ng·h/mL
